Experimental data pooled from the literature.
Compare with care: the assays were run in different laboratories. pIC50: −log10 of the molar value. ≈ marks a conversion by molar mass, not a printed value.
Organism: Mycobacterium tuberculosis

Structure (SMILES)	test	test system	conditions	scale	endpoint	value
CO[C@H]1/C=C/O[C@@]2(C)Oc3c(C)c(O)c4c(O)c(c(/C=N/N5CCN(C)CC5)c(O)c4c3C2=O)NC(=O)/C(C)=C\C=C\[C@H](C)[C@H](O)[C@@H](C)[C@@H](O)[C@@H](C)[C@H](OC(C)=O)[C@@H]1C	–	–	4 x MIC	–	resistance mutation frequency	2.26e-06 mutants per cell
NNC(=O)c1ccncc1	–	H37Rv inhA M103V mutant	concentration not given	reference: wild type H37Rv	MIC fold change	1 fold
O=C(Cc1ccccc1)Nc1cc(-c2ccccn2)nc2nncn12	bacterial growth	–	–	–	IC90	> 100000 nM
CCCCCCC#Cc1cncc(-c2nnc(SCc3ccc([N+](=O)[O-])o3)n2C2CC2)c1	MABA	Erdman wild type	–	–	pIC50	7.40
NC(=S)NN=Cc1ccc(OC(=O)CN2C(=O)CSC2=O)c(Br)c1	Alamar blue	MDR 210	–	–	MIC	74.2 µM (≈ 32 µg/mL)
CS(=O)(=O)Nc1ncn(-c2cc(F)c(COc3ccc(OS(=O)(=O)F)cc3)c(F)c2)n1	–	–	4 x MIC	–	resistance mutation frequency	4.41e-08 mutants per cell
CO[C@H]1/C=C/O[C@@]2(C)Oc3c(C)c(O)c4c(O)c(c(/C=N/N5CCN(C)CC5)c(O)c4c3C2=O)NC(=O)/C(C)=C\C=C\[C@H](C)[C@H](O)[C@@H](C)[C@@H](O)[C@@H](C)[C@H](OC(C)=O)[C@@H]1C	–	H37Rv inhA G96V mutant	concentration not given	reference: wild type H37Rv	MIC fold change	1 fold
FC(F)(F)c1ccc(CCNc2cc(-c3ccccn3)nc3nncn23)cc1	bacterial growth	–	–	–	IC90	1700 nM
CCOc1cc(C=NNC(N)=S)ccc1OC(=O)CN1C(=O)CSC1=O	Alamar blue	MDR 210	–	–	MIC	72.3 to 167 µM (≈ 28.7 to 66.3 µg/mL)
NNC(=O)c1ccncc1	–	–	10 x MIC	–	resistance mutation frequency	7.47e-06 mutants per cell
NNC(=O)c1ccncc1	–	H37Rv	before serial passaging	–	MIC90	0.24 µM (≈ 0.0329 µg/mL)
O=[N+]([O-])c1cn2c(n1)OC[C@@H](OCc1ccc(OC(F)(F)F)cc1)C2	MABA	Erdman wild type	–	–	pIC50	6.83
NC(=S)NN=Cc1ccc(OC(=O)CN2C(=O)CSC2=O)cc1	Alamar blue	MDR 210	–	–	MIC	45.4 µM (≈ 16 µg/mL)
FC(F)(F)c1ccc(CCNc2cc(-c3cccs3)nc3nncn23)cc1	bacterial growth	–	–	–	IC90	3000 nM

For quick reference, copied from above:
Structure (SMILES)	test	test system	conditions	scale	endpoint	value
NC(=S)NN=Cc1ccc(OC(=O)CN2C(=O)CSC2=O)c(Br)c1	Alamar blue	MDR 210	–	–	MIC	74.2 µM (≈ 32 µg/mL)
